{"data": "Measurements from different studies", "note": "A part holds a random share of what one study measured. Several values in a cell are separate wells, animals, samples, runs or records.", "chain of UniProt Q9UBE8 (whole entry, looked up)": "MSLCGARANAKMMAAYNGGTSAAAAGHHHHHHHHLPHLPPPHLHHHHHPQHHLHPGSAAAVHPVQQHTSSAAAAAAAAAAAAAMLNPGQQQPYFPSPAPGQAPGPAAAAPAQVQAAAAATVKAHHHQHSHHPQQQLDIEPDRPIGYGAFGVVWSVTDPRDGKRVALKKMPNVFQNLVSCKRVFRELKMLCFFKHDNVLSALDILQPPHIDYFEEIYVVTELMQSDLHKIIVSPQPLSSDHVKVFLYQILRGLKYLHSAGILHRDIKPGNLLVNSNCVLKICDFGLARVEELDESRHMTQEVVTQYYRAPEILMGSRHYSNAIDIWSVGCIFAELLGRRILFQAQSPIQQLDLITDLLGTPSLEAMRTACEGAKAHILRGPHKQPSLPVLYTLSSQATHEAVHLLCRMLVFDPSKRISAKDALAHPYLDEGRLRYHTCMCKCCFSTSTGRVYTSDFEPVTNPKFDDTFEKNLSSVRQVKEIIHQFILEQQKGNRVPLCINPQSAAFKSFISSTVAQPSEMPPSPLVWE", "chain of UniProt O00506 (whole entry, looked up)": "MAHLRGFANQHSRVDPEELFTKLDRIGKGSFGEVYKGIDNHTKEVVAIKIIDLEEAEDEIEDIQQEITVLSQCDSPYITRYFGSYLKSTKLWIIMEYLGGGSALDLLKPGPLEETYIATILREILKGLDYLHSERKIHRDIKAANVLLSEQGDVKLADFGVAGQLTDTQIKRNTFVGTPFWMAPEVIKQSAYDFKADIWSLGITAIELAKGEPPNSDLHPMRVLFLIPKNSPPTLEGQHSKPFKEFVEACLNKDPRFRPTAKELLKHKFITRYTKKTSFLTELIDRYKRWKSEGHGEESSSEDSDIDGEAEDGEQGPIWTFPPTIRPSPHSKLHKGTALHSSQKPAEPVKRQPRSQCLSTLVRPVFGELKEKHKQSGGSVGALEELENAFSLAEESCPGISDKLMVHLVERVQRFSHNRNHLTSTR", "chain of UniProt Q16512 (whole entry, looked up)": "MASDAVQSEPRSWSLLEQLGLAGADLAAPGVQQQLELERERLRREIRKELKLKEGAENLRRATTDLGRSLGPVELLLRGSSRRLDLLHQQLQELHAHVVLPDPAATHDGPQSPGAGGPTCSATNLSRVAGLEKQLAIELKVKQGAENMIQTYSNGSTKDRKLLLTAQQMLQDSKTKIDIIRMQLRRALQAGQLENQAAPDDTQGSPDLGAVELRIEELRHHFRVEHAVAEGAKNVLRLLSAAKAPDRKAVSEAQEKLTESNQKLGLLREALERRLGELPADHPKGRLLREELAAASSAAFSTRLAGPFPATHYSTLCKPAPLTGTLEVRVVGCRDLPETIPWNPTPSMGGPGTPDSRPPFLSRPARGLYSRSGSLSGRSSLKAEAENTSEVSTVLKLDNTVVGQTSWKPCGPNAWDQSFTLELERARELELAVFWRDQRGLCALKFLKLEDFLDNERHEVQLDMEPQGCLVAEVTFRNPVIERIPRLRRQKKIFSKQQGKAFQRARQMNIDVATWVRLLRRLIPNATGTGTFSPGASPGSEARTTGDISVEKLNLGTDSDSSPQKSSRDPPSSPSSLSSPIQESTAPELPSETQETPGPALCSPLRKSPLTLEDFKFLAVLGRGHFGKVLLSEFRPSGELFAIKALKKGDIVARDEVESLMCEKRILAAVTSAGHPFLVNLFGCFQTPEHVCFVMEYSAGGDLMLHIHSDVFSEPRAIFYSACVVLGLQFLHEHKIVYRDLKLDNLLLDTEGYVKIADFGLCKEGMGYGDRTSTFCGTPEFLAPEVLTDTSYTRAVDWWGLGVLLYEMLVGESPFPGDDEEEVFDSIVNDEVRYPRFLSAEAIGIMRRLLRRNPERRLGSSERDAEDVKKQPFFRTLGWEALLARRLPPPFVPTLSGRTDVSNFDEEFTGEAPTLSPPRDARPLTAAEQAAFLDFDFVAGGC", "chain of UniProt Q00526 (whole entry, looked up)": "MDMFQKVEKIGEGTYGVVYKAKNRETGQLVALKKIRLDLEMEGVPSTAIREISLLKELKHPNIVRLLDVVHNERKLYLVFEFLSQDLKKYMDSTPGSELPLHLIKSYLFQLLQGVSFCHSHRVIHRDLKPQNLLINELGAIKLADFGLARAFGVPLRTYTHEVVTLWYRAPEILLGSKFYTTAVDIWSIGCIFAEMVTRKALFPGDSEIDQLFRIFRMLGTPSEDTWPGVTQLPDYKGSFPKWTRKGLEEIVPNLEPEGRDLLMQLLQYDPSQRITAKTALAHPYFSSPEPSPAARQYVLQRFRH", "chain of UniProt P42679 (whole entry, looked up)": "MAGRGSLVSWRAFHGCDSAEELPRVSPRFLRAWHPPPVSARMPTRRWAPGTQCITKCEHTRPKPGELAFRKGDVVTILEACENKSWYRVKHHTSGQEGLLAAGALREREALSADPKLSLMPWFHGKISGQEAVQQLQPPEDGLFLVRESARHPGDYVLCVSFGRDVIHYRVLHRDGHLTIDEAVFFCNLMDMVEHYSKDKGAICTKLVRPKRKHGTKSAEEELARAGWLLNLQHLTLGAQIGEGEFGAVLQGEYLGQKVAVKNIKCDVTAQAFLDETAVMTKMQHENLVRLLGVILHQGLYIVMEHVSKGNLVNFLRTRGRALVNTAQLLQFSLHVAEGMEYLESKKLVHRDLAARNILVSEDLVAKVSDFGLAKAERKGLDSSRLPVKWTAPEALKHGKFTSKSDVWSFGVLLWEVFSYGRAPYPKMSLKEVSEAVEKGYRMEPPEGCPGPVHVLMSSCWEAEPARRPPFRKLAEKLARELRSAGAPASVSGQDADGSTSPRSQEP", "chain of UniProt Q8NG66 (whole entry, looked up)": "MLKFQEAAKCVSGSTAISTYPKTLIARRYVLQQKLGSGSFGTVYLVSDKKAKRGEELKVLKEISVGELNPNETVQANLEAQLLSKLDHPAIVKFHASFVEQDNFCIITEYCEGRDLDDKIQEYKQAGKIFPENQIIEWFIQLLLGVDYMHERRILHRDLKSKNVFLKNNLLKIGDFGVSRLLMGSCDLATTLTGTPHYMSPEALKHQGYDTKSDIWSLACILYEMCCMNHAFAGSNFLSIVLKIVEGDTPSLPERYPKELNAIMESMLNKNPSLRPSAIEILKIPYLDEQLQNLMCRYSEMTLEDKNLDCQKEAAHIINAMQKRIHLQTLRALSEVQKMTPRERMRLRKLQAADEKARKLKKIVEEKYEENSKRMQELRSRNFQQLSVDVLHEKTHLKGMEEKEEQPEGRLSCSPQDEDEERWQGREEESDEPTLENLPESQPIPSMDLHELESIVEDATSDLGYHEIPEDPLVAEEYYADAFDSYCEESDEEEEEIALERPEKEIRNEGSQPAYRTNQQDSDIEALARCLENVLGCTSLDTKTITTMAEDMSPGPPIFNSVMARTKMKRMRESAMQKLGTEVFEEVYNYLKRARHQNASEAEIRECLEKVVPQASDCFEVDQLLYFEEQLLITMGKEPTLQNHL", "chain of UniProt P29376 (whole entry, looked up)": "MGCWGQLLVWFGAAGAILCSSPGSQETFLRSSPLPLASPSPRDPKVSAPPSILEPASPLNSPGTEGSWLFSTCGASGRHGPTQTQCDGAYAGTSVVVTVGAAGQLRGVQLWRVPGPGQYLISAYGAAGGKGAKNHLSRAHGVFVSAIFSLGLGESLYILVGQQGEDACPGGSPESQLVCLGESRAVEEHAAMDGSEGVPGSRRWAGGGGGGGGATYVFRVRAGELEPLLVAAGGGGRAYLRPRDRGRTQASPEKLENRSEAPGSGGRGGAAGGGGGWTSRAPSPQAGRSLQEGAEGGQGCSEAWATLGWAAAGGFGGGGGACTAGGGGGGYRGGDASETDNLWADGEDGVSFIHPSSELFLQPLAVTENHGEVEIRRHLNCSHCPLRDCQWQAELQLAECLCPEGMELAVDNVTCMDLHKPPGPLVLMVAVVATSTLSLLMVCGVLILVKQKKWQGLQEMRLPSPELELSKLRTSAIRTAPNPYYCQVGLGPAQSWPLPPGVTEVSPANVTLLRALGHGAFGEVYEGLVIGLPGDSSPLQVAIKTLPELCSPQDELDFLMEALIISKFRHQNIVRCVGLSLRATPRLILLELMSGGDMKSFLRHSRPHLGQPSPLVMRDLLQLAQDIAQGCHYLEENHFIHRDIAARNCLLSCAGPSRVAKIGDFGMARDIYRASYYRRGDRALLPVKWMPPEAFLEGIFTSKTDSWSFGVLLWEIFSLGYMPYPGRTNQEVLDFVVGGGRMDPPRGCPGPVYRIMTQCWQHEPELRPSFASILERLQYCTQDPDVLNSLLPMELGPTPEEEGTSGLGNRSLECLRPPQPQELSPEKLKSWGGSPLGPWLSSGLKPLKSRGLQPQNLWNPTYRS"}
{"data": "Sample 1", "SMILES": "COc1ccc2c(c[n+](C)c3c4cc5c(cc4ccc23)OCO5)c1OC", "read-out": "enzyme activity", "mode": "inhibitor", "tested at": "0.5 µM", "baseline": "control"}
{"target": "ALK (Homo sapiens, UniProt Q9UM73)", "remaining activity": "105%"}
{"target": "NEK11 (Homo sapiens, UniProt Q8NG66)", "remaining activity": "106%"}
{"target": "NLK (Homo sapiens, UniProt Q9UBE8)", "remaining activity": "102%"}
{"target": "STK25 (Homo sapiens, UniProt O00506)", "remaining activity": "98.8%"}
{"target": "Cyclin-dependent kinase 3, with cyclin E (CDK3, Homo sapiens, UniProt Q00526)", "remaining activity": "91.7%"}
{"target": "CDC42BPA (Homo sapiens, UniProt Q5VT25)", "remaining activity": "84.8%"}
{"target": "FYN (Homo sapiens, UniProt P06241)", "remaining activity": "101%"}
{"target": "FER (Homo sapiens, UniProt P16591)", "remaining activity": "89.8%"}
{"target": "FLT4 (Homo sapiens, UniProt P35916)", "remaining activity": "97.6%"}
{"target": "PASK (Homo sapiens, UniProt Q96RG2)", "remaining activity": "91.1%"}
{"target": "MARK3 (Homo sapiens, UniProt P27448)", "remaining activity": "98.7%"}
{"target": "PKN1 (Homo sapiens, UniProt Q16512)", "remaining activity": "101%"}
{"target": "FGR (Homo sapiens, UniProt P09769)", "remaining activity": "91.3%"}
{"target": "Insulin receptor (INSR, Homo sapiens, UniProt P06213)", "remaining activity": "94.9%"}
{"target": "LIM domain kinase 1 (LIMK1, Homo sapiens, UniProt P53667)", "remaining activity": "109%"}
{"target": "MATK (Homo sapiens, UniProt P42679)", "remaining activity": "89.5%"}
{"target": "TAOK3 (Homo sapiens, UniProt Q9H2K8)", "remaining activity": "96.1%"}
{"target": "PRKX (Homo sapiens, UniProt P51817)", "remaining activity": "95.1%"}
{"target": "AKT1 (Homo sapiens, UniProt P31749)", "remaining activity": "97.6%"}
{"target": "SRC (Homo sapiens, UniProt P12931)", "remaining activity": "91.5%"}
{"target": "ITK (Homo sapiens, UniProt Q08881)", "remaining activity": "99.2%"}
{"target": "HIPK1 (Homo sapiens, UniProt Q86Z02)", "remaining activity": "100%"}
{"data": "Sample 2", "cell line": "A-375", "tested at": "100 µM", "time": "18 h"}
{"SMILES": "COc1cccc2c1cc([N+](=O)[O-])c1c(C(=O)O)cc3c(c12)OCO3", "viability [%]": 58.9}
{"SMILES": "COc1cc2c(cc1OC)C13CCN4CC5=CCOC6CC(=O)N2C1C6C5CC43 (centres unmarked)", "viability [%]": 88.1}
{"SMILES": "CC(C)c1c(CN(C)C(C)Cc2ccccc2)n(C)n(-c2ccccc2)c1=O (centres unmarked)", "viability [%]": 109}
{"SMILES": "C#C[C@]1(O)CC[C@H]2[C@@H]3CCC4=CC(=O)CC[C@]4(C)[C@H]3CC[C@@]21C", "viability [%]": 101}
{"SMILES": "C[C@]12CC[C@H](O)CC1=CC[C@@H]1[C@@H]2CC[C@]2(C)C(=O)CC[C@@H]12", "viability [%]": 46.8}
{"data": "Sample 3", "target": "Calcium/calmodulin-dependent protein kinase type II subunit alpha (CAMK2A, Homo sapiens, UniProt Q9UQM7)", "read-out": "enzyme activity", "mode": "inhibitor", "tested at": "10 µM", "chain of UniProt Q9UQM7 (whole entry, looked up)": "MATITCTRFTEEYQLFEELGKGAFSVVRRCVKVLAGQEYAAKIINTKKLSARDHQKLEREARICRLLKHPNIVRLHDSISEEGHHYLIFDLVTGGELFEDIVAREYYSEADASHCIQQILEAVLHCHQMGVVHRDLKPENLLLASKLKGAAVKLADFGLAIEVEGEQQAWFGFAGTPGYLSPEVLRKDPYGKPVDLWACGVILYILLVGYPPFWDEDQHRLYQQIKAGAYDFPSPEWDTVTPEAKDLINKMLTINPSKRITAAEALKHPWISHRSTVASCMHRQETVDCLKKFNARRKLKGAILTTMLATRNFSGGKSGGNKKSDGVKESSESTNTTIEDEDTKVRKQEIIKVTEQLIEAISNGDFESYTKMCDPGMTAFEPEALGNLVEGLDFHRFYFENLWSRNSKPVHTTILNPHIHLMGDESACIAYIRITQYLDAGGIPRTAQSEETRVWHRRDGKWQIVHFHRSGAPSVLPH"}
{"SMILES": "COC1=C[C@]23CCCN2CCc2cc4c(cc2[C@@H]3[C@@H]1O)OCO4", "inhibition": "46%"}
{"SMILES": "CC[C@H]1[C@@H]2C[C@H]3[C@@H]4N(C)c5ccccc5[C@]45C[C@@H]([C@H]2[C@H]5O)N3[C@@H]1O", "inhibition": "1%"}
{"SMILES": "C#C[C@]1(O)CC[C@H]2[C@@H]3CCC4=CC(=O)CCC4=C3C=C[C@@]21CC", "inhibition": "-3%"}
{"SMILES": "Cn1cc(C2=C(c3cn(C4CCN(Cc5ccccn5)CC4)c4ccccc34)C(=O)NC2=O)c2ccccc21", "inhibition": "3%"}
{"SMILES": "C[C@@H]1CC[C@@]2(NC1)O[C@H]1C[C@H]3[C@@H]4CC=C5C[C@@H](O[C@@H]6O[C@H](CO)[C@@H](O[C@@H]7O[C@@H](C)[C@H](O)[C@@H](O)[C@H]7O)[C@H](O)[C@H]6O)CC[C@]5(C)[C@H]4CC[C@]3(C)[C@H]1[C@@H]2C", "inhibition": "39%"}
{"SMILES": "CCCCCCCCC(=O)NCc1ccc(O)c(OC)c1", "inhibition": "18%"}
{"data": "Sample 4", "Structure (SMILES)": "Cc1c(NC(=O)c2cc(C(N)=O)nc3cc(F)ccc23)c(C(F)(F)F)nn1Cc1ccc(C(C)(C)C)cc1", "read-out": "binding", "method": "radioligand binding", "tested at": "10 µM"}
{"target": "HTR2A (Homo sapiens, UniProt P28223)", "inhibition [%]": -0.878}
{"target": "OPRM1 (Homo sapiens, UniProt P35372)", "inhibition [%]": 4.84}
{"target": "HTR2C (Homo sapiens, UniProt P28335)", "inhibition [%]": -2.42}
{"data": "Sample 5", "SMILES": "CC(=O)N[C@@H](Cc1c[nH]c2ccccc12)C(=O)N[C@@H](CCC(=O)C=[N+]=[N-])C(=O)OC(C)C"}
{"species": "C57BL/6 CES1-/- mouse, both sexes", "dose": "0.1 mg/kg", "time": "day 14", "body weight": "110% and 100% and 109% and 114%"}
{"species": "C57BL/6 CES1-/- mouse, both sexes", "dose": "0.3 mg/kg", "time": "day 15", "body weight": "104% and 100% and 95.7%"}
{"species": "C57BL/6 CES1-/- mouse, EL4 tumour", "route": "intravenous", "dose": "1 mg/kg DON equivalent", "time": "treatment day 17", "notes": "5 days per week", "baseline": "baseline", "body weight": "90% and 96% and 100% and 92% and 110% and 89%"}
{"data": "Sample 6", "SMILES": "O=C(c1cc(Cc2n[nH]c(=O)c3ccccc23)ccc1F)N1CCN(C(=O)C2CC2)CC1", "cell line": "CAPAN-1 BRCA2-corrected"}
{"tested at": "1 µM", "clonogenic survival": "87.1% and 52%"}
{"tested at": "0.25 µM", "clonogenic survival": "90.3% and 72.6%"}
{"tested at": "0.5 µM", "clonogenic survival": "114% and 91.7%"}
{"data": "Single results of other studies"}
{"SMILES": "C=CC(=O)N1CCC[C@@H](n2nc(-c3ccc(Oc4ccccc4)cc3)c3c(N)ncnc32)C1", "target or system": "LTK (Homo sapiens, UniProt P29376)", "test": "enzyme activity, inhibitor", "conditions": "1 µM", "endpoint": "inhibition", "value": "25%"}
{"SMILES": "Oc1ccc(C2NCc3ccccc3-n3cccc32)cc1Cl (centres unmarked)", "system": "mouse, microsomes or S9", "conditions": "2 µM, 0.5 h", "endpoint": "remaining compound", "value": "20.6%"}
{"note": "For quick reference, copied from above (sample 1):"}
{"target": "NLK (Homo sapiens, UniProt Q9UBE8)", "remaining activity": "102%"}
{"target": "NEK11 (Homo sapiens, UniProt Q8NG66)", "remaining activity": "106%"}
{"target": "PKN1 (Homo sapiens, UniProt Q16512)", "remaining activity": "101%"}
{"target": "FYN (Homo sapiens, UniProt P06241)", "remaining activity": "101%"}
